# Measured values of several laboratories.
# Compare with care: the assays were run in different laboratories. ± marks the error that the study gave.
SMILES,target or system,assay,test system,conditions,how to read,endpoint,result
Cc1ncsc1-c1ccc(C(C)NC(=O)C2CC(O)CN2C(=O)C(NC(=O)CCCCCCCCCCN2CCCC(Nc3ncc(Cl)c(Nc4ccccc4S(=O)(=O)C(C)C)n3)C2)C(C)(C)C)cc1 (stereo not shown),22Rv1,"RNA-seq, refers to: TRAFD1 mRNA",,concentration not given,relative to: DMSO,log2 fold change,-1.1
Nc1ncc(-c2cc(-c3cnn(CC(F)(F)F)c3)ncc2F)nc1C(=O)NC1CNCC(F)C1 (stereo not shown),KIT-autoinhibited,KINOMEscan competition binding,,1 µM,relative to: DMSO control,remaining binding,81%
CC(C)(C)c1cc(-c2ccc3cccnc3n2)nc(-c2ccc3cccnc3n2)c1.COc1ccncc1.[Cl-].[Cl-].[Ru+2].c1ccc2cc3nc4c5cccnc5c5ncccc5c4nc3cc2c1,A-375,resazurin,,"added: light 633 nm, 20 mW, 100 J/cm2",,EC50,1590 nM
CNS(=O)(=O)Nc1nccc(Cc2c(C)c3ccc(Oc4ncccc4F)cc3oc2=O)c1F,OCI-Ly3,cell viability,,7 days,,IC50,> 1000 nM
C=CC(=O)Nc1cccc(Cn2ncc3cnc(Nc4cnn(CCOC)c4)nc32)c1,human TRKA,KINOMEscan,,100 nM,relative to: control,binding,40%
COC1OC(C)C(OC2OC(C)C(OS(=O)(=O)O)C(OS(=O)(=O)O)C2OS(=O)(=O)O)C(OS(=O)(=O)O)C1OS(=O)(=O)O (stereo not shown),,,human plasma,128 µg/mL,relative to: control,prothrombin time prolongation,1.03 fold
O=C(N/N=C/c1cc[n+](Cc2ccccc2)c2ccccc12)c1cncc(C(=O)N/N=C/c2cc[n+](Cc3ccccc3)c3ccccc23)n1,MYC parallel G4 DNA,FRET melting,,"1 µM, DNA 0.2 µM, added: duplex DNA competitor 10 µM",,ΔTm,10.5 ± 0.2 °C
C=CC(=O)N1[C@@H](c2ccc3c(c2)OCO3)c2[nH]c3ccccc3c2C[C@H]1C(=O)N1CCN(C)CC1,human cyclin E1 wild type-3xFLAG:CDK2,"co-IP with TMT proteomics, refers to: TXN",,"concentration not given, P10599",relative to: wild type DMSO,relative co-enrichment,70%
O=C(N/N=C/c1ccc2c(ccc[n+]2Cc2ccccc2)c1)N/N=C/c1ccc2c(ccc[n+]2Cc2ccccc2)c1,MYC parallel G4 DNA,FRET melting,,"1 µM, DNA 0.2 µM, added: duplex DNA competitor 10 µM",,ΔTm,6.8 ± 0.5 °C
CN1CCCNC(=O)c2cccc(c2)C(=O)NCCCN(C)CCCNc2cccc3c2C(=O)c2cccc(c2C3=O)NCCC1,SAS,"RNA-Seq, refers to: ADNP2 mRNA",,"1 µM, 6 h",relative to: untreated cells,log2 fold change,0.702
C[n+]1ccc(/C=N/NC(=O)c2ccc3ccc(C(=O)N/N=C/c4cc[n+](C)cc4)nc3n2)cc1,hp2 hairpin duplex DNA,FRET melting,,"1 µM, added: ds26 10 µM",,ΔTm,0.1 ± 0.2 °C
O=C(CSc1cccc[n+]1[O-])c1ccccc1Br,Mus musculus,"gene silencing, high-content imaging",LDR reporter GFP cells,"30 h, retest, mean of two runs",,Emax,98%
O=C(N/N=C/c1ccc(C[n+]2ccccc2)cc1)C(=O)N/N=C/c1ccc(C[n+]2ccccc2)cc1,MYC parallel G4 DNA,FRET melting,,"1 µM, DNA 0.2 µM, added: duplex DNA competitor 10 µM",,ΔTm,3.1 ± 0.6 °C
Oc1c(/N=N/c2ccccn2)ccc2ccccc12,Mus musculus,"gene silencing, high-content imaging",LDR reporter GFP cells,retest run 1,,AC50,3980 nM
C[n+]1cccc2cc(/C=N/NC(=O)N/N=C/c3ccc4c(ccc[n+]4C)c3)ccc21,MYC parallel G4 DNA,FRET melting,,"1 µM, DNA 0.2 µM",,ΔTm,4.7 ± 1.6 °C
COC1CN([C@H]2CC[C@H]([C@@]3(C)Oc4c(Cl)cc(C(=O)NCc5c(SC)cc(C)[nH]c5=O)c(C)c4O3)CC2)C1,,"RNA-seq, refers to: C17orf99 mouse homolog","mouse, HT-1376 xenograft, whole blood",dose not given,relative to: vehicle,log2 fold change,0.387
